Experimental data from different studies.
Compare with care: the assays were run in different laboratories. Several values in a cell are separate wells, animals, samples, runs or records.
Target: G protein-coupled receptor kinase 5 (GRK5, Homo sapiens, UniProt P34947)

Under “activity vs control”, CNC(=O)C[C@H](Cc1ccc(C#N)cc1)NC(=O)c1cc(-c2ccc(CN[C@H](C)c3ccc(C)cc3)o2)ccc1Cl is recorded as 94% (enzyme activity, inhibitor; 1 µM).
With Cc1nc2c(F)cc(-c3nc(Nc4ccc(CNC(=O)CCCCCCC(=O)NO)cc4)ncc3F)cc2n1C(C)C the inhibition was 3% (enzyme activity, inhibitor; 1 µM).
For CCn1cc(C(=O)O)c(=O)c2c(N)c(F)c(NC3CCCCC3)cc21, the inhibition was -3.2% (kinase activity; 0.1 µM, together with: ATP at Km).
The inhibition of CN1CC[C@@H](COc2cnc(C#N)cc2-c2ccn3nc(NC(=O)C4CC4)cc3c2)C1 is reported as -17% (enzyme activity, inhibitor; 1 µM).
For COc1ccc(NC(=O)Nc2ccc3c(c2)C(=O)N(C(C)CO)CC(C)C(CN(C)Cc2ccc4c(c2)OCO4)O3)cc1 (stereo not drawn), the remaining activity was 98% (kinase activity, KinaseProfiler; 0.03 µM, species human; reference: control).
C=CC(=O)Nc1cc(-c2nn(C3CCN(CCNC(=O)[C@H](C)CCC45CC6CC(CC(C6)C4)C5)CC3)c3ncnc(N)c23)ccc1Oc1ccccc1 has an inhibition of 13% (inhibitor, KiNativ profiling; biochemical; 2 µM).
Under “activity vs control”, O=C(Cc1ccc(OCc2ccccc2)cc1)NC1(C(=O)O)CCN(C(=O)c2ccc(-c3cccc(Cl)c3)cc2)CC1 is recorded as 109% (enzyme activity, inhibitor; 10 µM).
C=CC(=O)N1Cc2nc(-c3cc(-c4cc(Cl)cnc4Cl)c(F)cc3F)n(-c3ccncn3)c2C1 gave an inhibition of 2.9% (cell-free assay, inhibitor; 1 µM).
The inhibition of CN1CCN(Cc2ccc(-c3ccc(CO[C@H]4CCC[C@@H]4NC(=O)c4cc(-c5cnn(C)c5)cnc4N)cc3)cc2)CC1 is reported as 6% (enzyme activity, inhibitor; 0.1 µM).
O=C=[N][Ru-4]123([n]4c5ccc(O)cc5c5c6c(c7cc(F)c[n+]1c7c54)C(=O)NC6=O)[S+]1CC[S+]2CC[S+]3CC1 (stereo not drawn) has a remaining activity of 65% (enzyme activity; 100 nM, human enzyme, together with: 10 µM ATP; reference: untreated).
The remaining activity of COc1c(OCCCN2CCOCC2)ccc2c1N=C(NC(=O)c1cnc(N)nc1)N1CCN=C21 is reported as 109% (kinase activity, inhibitor; 1 µM; reference: untreated control).
The inhibition of NC(=O)[C@@H](O)C[C@H]1CCc2sc3ncnc(O[C@H]4CC[C@H](N5CCOCC5)CC4)c3c21 is reported as 8% (enzyme activity, inhibitor; 10 µM).
The remaining activity of COCC12C(=O)NC3C4(C(OC)CC1O)C1CC5(O)C(OC)C(O)C(OC(C)=O)(C1C5OC(=O)c1ccccc1)C3(O)C(OC)C24 (stereo not drawn) is reported as 79% and 93% (kinase activity, inhibitor, ProQinase kinase profiling; 25 µM; reference: control).
For NC(=O)C[C@H]1CCc2sc3ncnc(O[C@H]4CC[C@H](N5CCOCC5)CC4)c3c21, the inhibition was 6% (enzyme activity, inhibitor; 10 µM).
With Nc1ncc(-c2cc(-c3cnn(CC(F)(F)F)c3)ncc2F)nc1C(=O)NC1CNCC(F)C1 (stereo not drawn) the remaining activity was 98.7% (enzyme activity; 1 µM; reference: DMSO control).

Excerpt of the above:
Under “activity vs control”, O=C(Cc1ccc(OCc2ccccc2)cc1)NC1(C(=O)O)CCN(C(=O)c2ccc(-c3cccc(Cl)c3)cc2)CC1 is recorded as 109% (enzyme activity, inhibitor; 10 µM).
